# Assay results gathered from unrelated publications.
# Effect on: metabolic stability
# Species: human
SMILES,matrix,tested at,pH,measurement,result
COc1cc(N)c(C(N)=O)cn1,liver microsomes,,,microsomal CLint,< 5 µL/min/mg
Cc1nc2ccc(S(=O)(=O)n3nc(SCc4ccc(Cl)cc4)nc3N)cc2s1,liver microsomes,1 µM,pH 7.4,microsomal CLint,273 µL/min/mg
Cn1ncc2cc(CN3CCC(F)(F)C(COc4cccc(F)c4)C3)ccc21 (centres unmarked),liver microsomes,,,scaled CLint,94.5 mL/min/kg
C=CC(=O)N1CCCC(n2c(=O)c3ncccc3n(Cc3ccc(Oc4ccccc4)cc3)c2=O)C1 (centres unmarked),hepatocytes,1 µM,,hepatocyte CLint,8.2 µL/min/10⁶ cells
CC(C)C[C@H](NC(=O)[C@@H]1CCCN1C(=O)[C@@H]1CCCN1C(=O)[C@H](CC(N)=O)NC(=O)[C@@H](N)Cc1ccc(Cl)c(Cl)c1)C(=O)N[C@@H](Cc1c[nH]cn1)C(=O)N[C@@H](CO)C(=O)N[C@H](C(=O)N[C@@H](C)C(=O)O)[C@@H](C)OP(=O)(O)O,liver microsomes,1 µM,pH 7.4,microsomal CLint,98 µL/min/mg
O=C(c1ccc(C23CC(S(F)(F)(F)(F)F)(CO2)C3)cc1)N1CCN(c2ncccn2)CC1,liver microsomes,,,microsomal CLint,27 µL/min/mg
Fc1ccc(OCC2CN(Cc3ncc4ccccn34)CCC2(F)F)cc1 (centres unmarked),liver microsomes,,,scaled CLint,1390 mL/min/kg
Cn1ccc([C@H](CCO)Nc2nc(N3CCOCC3)c3cc(-c4ccccc4)sc3n2)n1,hepatocytes,,,hepatocyte CLint,15 µL/min/10⁶ cells
Fc1ccc(OCC2CN(Cc3ncc4ccccn34)CCC2(F)F)cc1F (centres unmarked),liver microsomes,,,scaled CLint,255 mL/min/kg
COc1ccc(C(N)=O)cn1,hepatocytes,1 µM,pH 7.4,hepatocyte CLint,12 µL/min/10⁶ cells
CN(Cc1cc(C2CC2)on1)C(=O)c1cccc(-c2ccc(F)cc2)c1,liver microsomes,2 µM,pH 7.5,microsomal CLint,16.6 µL/min/mg
COc1ccc(CN2CCC(F)(F)C(COc3ccc(F)c(C)c3)C2)cc1F (centres unmarked),liver microsomes,,,scaled CLint,135 mL/min/kg
COc1cc(C)c(C(N)=O)cn1,liver microsomes,1 µM,pH 7.4,microsomal CLint,< 3 µL/min/mg
Cc1cc(C(=O)Nc2nc3cccc(C)c3n2[C@H]2CCCCN(C(=O)/C=C/CN(C)C)C2)ccn1,liver microsomes,,,microsomal CLint,42.4 µL/min/mg
CNc1cc(C)c(C(N)=O)cn1,hepatocytes,1 µM,pH 7.4,hepatocyte CLint,3.9 µL/min/10⁶ cells
CCC(CC)CNC(=N)NC(=N)NCCCCCCNC(=N)NC(=N)NCC(CC)CC,liver microsomes,2 µM,,microsomal CLint,2.07 µL/min/mg
CNc1cc(N)c(C(N)=O)cn1,hepatocytes,1 µM,pH 7.4,hepatocyte CLint,4.3 µL/min/10⁶ cells
O=C(c1ccc(-c2ccccc2)cc1)N1CCCCC1,liver microsomes,2 µM,pH 7.4,microsomal CLint,12 µL/min/mg
Cn1ncc2cc(CN3CCC(F)(F)C(COc4ccc(C#N)c(F)c4)C3)ccc21 (centres unmarked),liver microsomes,,,scaled CLint,148 mL/min/kg
O=C(N1CCCCC1)C12CC(c3ccccc3)(C1)C2(Br)Br,liver microsomes,2 µM,pH 7.4,microsomal CLint,139 µL/min/mg
O=C(Nc1nc(C(F)(F)F)co1)C1c2ccccc2Oc2ccccc21,liver microsomes,1 µM,pH 7.4,scaled CLint,262 mL/min/kg
CCC1(CC)CC(=O)N(C2c3cc(C(=O)NC4c5ccccc5CC4O)ccc3OC2(C)COC)C(=N)N1 (centres unmarked),hepatocytes,,,hepatocyte CLint,< 2.5 µL/min/10⁶ cells
O=C(O)Cc1ccccc1Nc1c(Cl)cccc1Cl,hepatocytes,1 µM,,scaled CLint,1.4 mL/min/kg

# A few entries again:
SMILES,matrix,tested at,pH,measurement,result
COc1cc(N)c(C(N)=O)cn1,liver microsomes,,,microsomal CLint,< 5 µL/min/mg
Cc1nc2ccc(S(=O)(=O)n3nc(SCc4ccc(Cl)cc4)nc3N)cc2s1,liver microsomes,1 µM,pH 7.4,microsomal CLint,273 µL/min/mg
Cn1ncc2cc(CN3CCC(F)(F)C(COc4cccc(F)c4)C3)ccc21 (centres unmarked),liver microsomes,,,scaled CLint,94.5 mL/min/kg
C=CC(=O)N1CCCC(n2c(=O)c3ncccc3n(Cc3ccc(Oc4ccccc4)cc3)c2=O)C1 (centres unmarked),hepatocytes,1 µM,,hepatocyte CLint,8.2 µL/min/10⁶ cells
